Experimental data pooled from the literature.
A part holds a random share of what one study measured. Substitutions count along the parent as printed.

Series 1
Target: CCNB1, cyclin fold, Cln2 fusion (human)
Technique: yeast growth competition, sequencing
Matrix: yeast
Setting: weak parent motif
Relative to: not given
Reading: higher = stronger binding
Parent: SCAPER docking peptide (human); SNARRSLNFGGST
Substitution	normalised enrichment score
G11Y	0.546
N2Q	1.01
N8K	0.852
L7D	0.687
T13S	0.409
L7R	0.0643

Series 2
Target: RNA binding protein fox-1 homolog 2, RRM domain, GST-SBP tag (RBFOX2, Homo sapiens, UniProt O43251-10, residues 100-194)
Technique: RNA Bind-n-Seq
Molecule type: RNA
Matrix: in vitro
Concentration: 365 nM
Setting: natural RNA segment, single round, ends assumed
Relative to: no-protein control
Reading: higher = stronger binding
All sequences stand within: GGGAGUUCUACAGUCCGACGAUC … UGGAAUUCUCGGGUGCCAA
Residues (chain): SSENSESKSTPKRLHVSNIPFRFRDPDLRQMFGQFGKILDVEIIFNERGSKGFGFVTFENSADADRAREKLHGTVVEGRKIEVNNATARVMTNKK
Strand	RBNS enrichment (R)
UAUGUGGUUACAAAUAUAUGUCAAUGUACAUUUUGAACAUAUUUAUGUGCUAUGGAAGGAAAUGCUGGUGACUAAAAUAAGGUUUACUCUGAAAGAGGAGGAAUUUUAUU	0.34
UGAUUGAUUAGAAUUGUGCUCUUGAUGGCUGGGAAUUUAGAAAUUUUAUUUUAAGAGUUAUUUCAUUUUCAUCCUAAGAGUGAUGGGAGAGAAAUGUCCAAAAGAGAUCU	0.415
UGUUAACCAACACCCCCAAGUGACUGACACAGGUGGUCUAAAAAUUACUUUUCUAGAAACACCAUUCUGGAAGUUUGGCUGCCCACAGGCAGGAGGAGAAGCAUGAAGAG	3.39
GAAUUGCCACAGGACACUAUGGCCUUGCUGGGCUAGCAUUUGCUGCUGUAAUCUAGUUGCUCUGGUAUAGAAGAGAACCCCAUGGGGCUGUGGGAGAGACAAUUCAGUGG	1.06
AUCUAAGUUGUGGUUCUUAGCCUGUCCCAGGAACAGCAGCAUGGGAGGCUAGGAACUUAACAGAAAUGAGGAUUCUUGGUUCUCACCCCAAACCUACUUAAUCAGAAACC	0.507

Series 3
Target: FOSL2, bZIP domain (human)
Technique: DHFR protein complementation
Matrix: yeast
Setting: single substitutions, most at no-binding floor
Relative to: wild-type JUN-FOS pair
Reading: higher = stronger binding
Parent: JUN, bZIP domain (human); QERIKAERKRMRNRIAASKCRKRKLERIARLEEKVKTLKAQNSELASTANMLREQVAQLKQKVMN; partner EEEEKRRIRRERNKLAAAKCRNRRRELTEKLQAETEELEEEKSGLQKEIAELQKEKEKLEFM
Substitution	binding fitness [natural log]
K34D	-0.102
E44A	0.0346
E32P	-0.95

Further values, each from its own experiment
Molecule	target	assay	system	setting	how to read	quantity	value
PhoQ, residues 284 288 289 292 302 303 DDMDFR	PhoP, residues 12 14 15 18 19 GQAIL (Escherichia coli, UniProt P23836)	Sort-seq, refers to: YFP reporter	E. coli	PhoQ-PhoP variant library, added: 10 µM Mg2+	relative to: high Mg2+ state, higher = stronger signaling	fold induction	0.851
